Experimental data from different studies.
Numbered parts are unrelated; each lists some results of a single study. Positions count from the first letter of the parent shown.

Study 1
Target: CCNE1, cyclin fold, Cln2 fusion (human)
Technique: yeast growth competition, sequencing
Medium: yeast
Notes: strong parent motif
Relative to: not given
Reading: higher = stronger binding
Starting sequence: viral docking peptide; YKVKRRLVFGADD; partner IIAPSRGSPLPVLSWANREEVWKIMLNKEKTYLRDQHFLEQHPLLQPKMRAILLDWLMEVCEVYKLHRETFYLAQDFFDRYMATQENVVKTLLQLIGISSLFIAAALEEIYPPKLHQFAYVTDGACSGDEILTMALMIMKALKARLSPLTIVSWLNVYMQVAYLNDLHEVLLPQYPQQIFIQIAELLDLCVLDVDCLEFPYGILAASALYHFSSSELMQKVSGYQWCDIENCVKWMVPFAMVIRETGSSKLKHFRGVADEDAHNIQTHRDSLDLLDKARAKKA
| Substitution | normalised enrichment score |
| --- | --- |
| K2L | 5.22 |
| F9R | -0.059 |
| V3L | 0.962 |
| R6Q | 5.1 |
| A11T | 6.24 |
| L7K | 0.519 |
| K4T | 2.58 |
| F9S | 0.188 |
| R5K F9L | 0.298 |
| D12Q | 5.19 |
| D12A | 5.19 |
| L7H | 0.149 |
| D12H | 4.66 |
| V8W | 5.52 |
| G10R | 4.11 |

Study 2
Target: vanadate, free oxyanion
Technique: microfluidic competitive inhibition
Medium: in vitro, cell-free expressed
Tested at: not given
Notes: derived from inhibition constants, unchanged parent 676 nM
Reading: lower = stronger binding
Starting sequence: PafA, mature enzyme, eGFP fusion (Elizabethkingia meningoseptica, UniProt Q9KJX5); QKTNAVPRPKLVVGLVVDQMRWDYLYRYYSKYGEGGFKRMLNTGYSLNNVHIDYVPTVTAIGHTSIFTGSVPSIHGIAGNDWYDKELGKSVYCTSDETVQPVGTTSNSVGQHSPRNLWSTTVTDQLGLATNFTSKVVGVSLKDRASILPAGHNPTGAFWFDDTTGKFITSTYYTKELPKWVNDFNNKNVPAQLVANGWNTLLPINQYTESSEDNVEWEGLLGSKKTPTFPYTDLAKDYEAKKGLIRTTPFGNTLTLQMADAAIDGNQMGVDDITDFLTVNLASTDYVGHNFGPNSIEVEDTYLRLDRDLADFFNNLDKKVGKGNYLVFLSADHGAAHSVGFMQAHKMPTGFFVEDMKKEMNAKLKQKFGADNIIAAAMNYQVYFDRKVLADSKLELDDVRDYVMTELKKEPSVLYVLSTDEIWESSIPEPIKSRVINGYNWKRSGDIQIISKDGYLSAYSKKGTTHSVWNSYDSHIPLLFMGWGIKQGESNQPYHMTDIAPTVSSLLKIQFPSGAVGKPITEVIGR
| Substitution | oxyanion analog dissociation constant |
| --- | --- |
| G321V | 644 nM |
| K236V | 788 nM |
| M20V | 6.09 µM |
| A362V | 690 nM |
| G165A | 602 nM |
| P178G | 591 nM |
| T464G | 641 nM |
| P203V | 758 nM |
| D183V | 647 nM |
| A150G | 824 nM |
| L25G | 577 nM |
| I374G | 626 nM |
| S108G | 796 nM |
| T123V | 1.25 µM |
| A145V | 143 µM |
| L128V | 724 nM |
| I524V | 728 nM |
| T274G | 512 nM |
| K224V | 958 nM |
| L277V | 600 nM |

Study 3
Target: Hepatocyte nuclear factor 3-beta, forkhead domain (FOXA2, Homo sapiens, UniProt Q9Y261, residues 142-269)
Technique: protein-binding microarray
Form: double-stranded DNA, one strand shown
Medium: in vitro
Tested at: not given
Notes: k-mer, scored over probes, only values ≥0.25
Reading: higher = stronger binding
Target sequence (chain): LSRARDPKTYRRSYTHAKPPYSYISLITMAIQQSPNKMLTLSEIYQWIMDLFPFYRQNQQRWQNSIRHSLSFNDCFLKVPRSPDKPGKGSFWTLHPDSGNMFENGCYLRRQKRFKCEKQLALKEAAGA
| Oligonucleotide | E-score |
| --- | --- |
| CTACAGAA | 0.259 |
| ACGTAAAG | 0.299 |
| ATGTTTAC | 0.391 |
| CAATGCTA | 0.27 |
| ATACTGTA | 0.322 |
| ACAAGTAG | 0.266 |
| GACATATA | 0.302 |
| AATACGTA | 0.261 |

Study 4
Target: TAR DNA-binding protein 43, full length, His tag (TARDBP, Homo sapiens, UniProt Q13148, residues 1-414)
Technique: RNA Bind-n-Seq
Form: RNA
Medium: in vitro
Tested at: 20 nM
Notes: 6-mer, flanks averaged, single round
Added: 150 mM LiCl
Relative to: input library
Reading: higher = stronger binding
| Oligonucleotide | 6-mer enrichment (R) |
| --- | --- |
| UCGAGA | 0.882 |
| AUCGAU | 0.823 |
| GCAAGA | 0.893 |
| CACGGA | 0.87 |
| AUUCGG | 0.898 |
| CGAUCC | 0.823 |
| UUACUG | 0.938 |
| AUAACU | 0.904 |

For quick reference, copied from above (study 3):
| Oligonucleotide | E-score |
| --- | --- |
| CAATGCTA | 0.27 |
| ATACTGTA | 0.322 |
| ACAAGTAG | 0.266 |
| GACATATA | 0.302 |
